Published values collected from several papers.
Each numbered part is a random draw from the data of one study; scales do not carry over between parts.

Set 1
Target: Sal-like protein 4, full length isoform A (SALL4, Homo sapiens, UniProt Q9UJQ4, residues 1-1053)
Sequence of UniProt Q9UJQ4 (whole entry, looked up): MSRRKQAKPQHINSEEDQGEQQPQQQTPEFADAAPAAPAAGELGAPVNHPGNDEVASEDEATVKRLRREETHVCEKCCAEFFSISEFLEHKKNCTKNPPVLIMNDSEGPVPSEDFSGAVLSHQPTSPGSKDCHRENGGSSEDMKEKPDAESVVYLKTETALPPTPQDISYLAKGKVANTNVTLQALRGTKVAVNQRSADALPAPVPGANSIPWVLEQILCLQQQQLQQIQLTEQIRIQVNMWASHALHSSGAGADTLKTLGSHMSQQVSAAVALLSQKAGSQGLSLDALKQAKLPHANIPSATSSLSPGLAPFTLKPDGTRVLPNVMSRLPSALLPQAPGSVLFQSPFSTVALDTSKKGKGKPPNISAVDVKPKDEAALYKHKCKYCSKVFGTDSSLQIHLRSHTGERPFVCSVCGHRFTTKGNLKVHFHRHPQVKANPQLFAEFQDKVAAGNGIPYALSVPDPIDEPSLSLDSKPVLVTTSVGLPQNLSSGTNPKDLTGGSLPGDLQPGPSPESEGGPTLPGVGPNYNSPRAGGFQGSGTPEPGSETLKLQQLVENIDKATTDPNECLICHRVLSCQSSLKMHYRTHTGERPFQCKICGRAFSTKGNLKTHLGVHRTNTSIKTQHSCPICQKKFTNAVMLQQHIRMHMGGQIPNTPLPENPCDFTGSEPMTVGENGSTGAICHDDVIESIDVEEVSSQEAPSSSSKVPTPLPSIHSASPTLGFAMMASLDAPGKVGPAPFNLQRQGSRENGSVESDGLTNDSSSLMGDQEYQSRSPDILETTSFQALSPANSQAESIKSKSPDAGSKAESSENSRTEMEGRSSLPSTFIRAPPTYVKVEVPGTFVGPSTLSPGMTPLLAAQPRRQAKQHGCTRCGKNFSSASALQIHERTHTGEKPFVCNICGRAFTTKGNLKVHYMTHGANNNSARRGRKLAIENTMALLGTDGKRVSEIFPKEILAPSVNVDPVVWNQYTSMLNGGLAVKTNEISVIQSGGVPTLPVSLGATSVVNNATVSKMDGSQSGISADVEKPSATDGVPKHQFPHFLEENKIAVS
Technique: universal PBM
Form: double-stranded DNA, one strand shown
Sample: in vitro
Tested at: 600 nM
Notes: 8-mer, flanks averaged, mean of replicates
Direction: higher = stronger binding
With `GATTAATA` the E-score was 0.397.
With `CCCATTAA` the E-score was 0.128.
For `CGTAATCA`, the E-score was 0.262.
`ATTCACCC` has an E-score of -0.0361.
With `TGTCTAAA` the E-score was 0.247.
`AGCAGACC` has an E-score of -0.182.

Set 2
Target: RING finger protein unkempt homolog, zinc fingers 1-6, GST-SBP tag (UNK, Homo sapiens, UniProt Q9C0B0, residues 30-357)
Technique: RNA Bind-n-Seq
Form: RNA
Sample: in vitro
Tested at: not given
Notes: RNA with constant flanks, human and mouse sites, ends assumed
Baseline: input RNA pool
Direction: higher = stronger binding
Target sequence (chain): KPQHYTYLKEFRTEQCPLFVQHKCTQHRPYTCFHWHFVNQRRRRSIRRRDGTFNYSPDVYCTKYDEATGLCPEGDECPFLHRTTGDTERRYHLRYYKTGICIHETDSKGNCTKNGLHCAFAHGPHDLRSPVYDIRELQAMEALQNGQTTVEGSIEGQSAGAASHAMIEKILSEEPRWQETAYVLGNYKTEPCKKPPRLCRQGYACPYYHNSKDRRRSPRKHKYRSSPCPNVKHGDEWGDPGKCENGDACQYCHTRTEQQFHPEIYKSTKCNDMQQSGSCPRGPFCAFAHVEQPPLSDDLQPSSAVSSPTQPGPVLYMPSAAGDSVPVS
The bound/input enrichment of `GGGAGUUCUACAGUCCGACGAUCAGGAGUUCAUAUGAAGACAAAAAUUUGUUGAAGAAAAAUAAGGAUGAGUCCUCAGUUUCCAUUUCUCACACAAAAUGUUCCUUGUUAGGAGACAUCAGUGAUGGGAAAAACUUAGUACCUCAACAGAGGAUUGAGCAUCA` is reported as 0.384 ratio.
`GGGAGUUCUACAGUCCGACGAUCGCUAUGAAAAGGGGAGAGCCUGCCAUCUACAGGCCACUAGAUCCAAAGCCAUUCCCAAAUUAUAGAGCUAACUACAACUUCCGGGGCAUGUACAAUCAGAGGUAUCAUUGCCCAAUGCCCCAACAGAGGAUUGAGCAUCA` has a bound/input enrichment of 0.315 ratio.
`GGGAGUUCUACAGUCCGACGAUCUUUAAAACAGGUCUAAAGGCUUUGAUGACAGUAGGGAAAGAACCAUUUCCUACCAUUUACGUAGAUUCACAAAAAGAAAAUGAGAGGUGGAAUGUUAUUUCUAAAUCACAGUUGAAGAACCAACAGAGGAUUGAGCAUCA` has a bound/input enrichment of 0.195 ratio.
The bound/input enrichment of `GGGAGUUCUACAGUCCGACGAUCGGCAUGGUCAUUCAUCAAGUAGAAGCCAAGCCCUCCGUCUAUUUCAUCAAGUUUGAUGAUGAUUUCCAUAUUUAUGUCUACGAUUUGGUGAAAACAUCCUAGAUGUCAUCACAAACUCUGCAACAGAGGAUUGAGCAUCA` is reported as 0.0913 ratio.

Set 3
Target: Phosphate system positive regulatory protein PHO4, full length, GST-tagged (PHO4, Saccharomyces cerevisiae, UniProt P07270, residues 1-312)
Technique: competition protein-binding microarray
Form: double-stranded DNA, one strand shown
Sample: in vitro
Tested at: 2 µM
Notes: whole 60-bp probe, lowest competitor level
Added: Cbf1 competitor, 0.05 µM
Direction: higher = stronger binding
Construct (chain): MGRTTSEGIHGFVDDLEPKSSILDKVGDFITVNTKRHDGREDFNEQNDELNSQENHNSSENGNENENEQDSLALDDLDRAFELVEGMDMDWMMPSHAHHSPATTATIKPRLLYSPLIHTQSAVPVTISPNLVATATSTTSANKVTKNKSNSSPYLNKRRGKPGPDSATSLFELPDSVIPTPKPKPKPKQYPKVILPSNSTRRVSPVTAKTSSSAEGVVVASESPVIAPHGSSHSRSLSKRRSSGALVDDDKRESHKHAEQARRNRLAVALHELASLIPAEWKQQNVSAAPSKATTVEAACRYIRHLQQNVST
For `GTCTTGTCTCATTGTCACTATACTTTCCCCACTTCAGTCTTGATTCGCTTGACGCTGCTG`, the fluorescence intensity was 4220 a.u.
`CTTCTGTAAATTTGTCACTGGACTTGACGCGCCCCGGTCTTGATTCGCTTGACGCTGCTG` has a fluorescence intensity of 3000 a.u.
`GTCTTGTCTCATTGTCTGGTGGGTGTCCCCACTTCAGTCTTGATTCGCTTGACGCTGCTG` gave a fluorescence intensity of 4730 a.u.
`TCTGTAACTTAATCACACGTGCAAAGTCTCTTTTACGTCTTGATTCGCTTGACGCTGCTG` gave a fluorescence intensity of 20000 a.u.
`GATATGTTTCTAATGCGCGTGTGAAGGGAATTTCGGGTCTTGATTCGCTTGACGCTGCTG` gave a fluorescence intensity of 10400 a.u.

Further values, each from its own experiment
The fold induction of `PhoQ, residues 284 288 289 292 302 303 DDMDFR` is reported as 0.797 (PhoP, residues 12 14 15 18 19 SQCLL (Escherichia coli, UniProt P23836); Sort-seq, measured: YFP reporter; E. coli; PhoQ-PhoP variant library, added: 10 µM Mg2+; baseline: high Mg2+ state, higher = stronger signaling).

For quick reference, copied from above (further values, each from its own experiment):
The fold induction of `PhoQ, residues 284 288 289 292 302 303 DDMDFR` is reported as 0.797 (PhoP, residues 12 14 15 18 19 SQCLL (Escherichia coli, UniProt P23836); Sort-seq, measured: YFP reporter; E. coli; PhoQ-PhoP variant library, added: 10 µM Mg2+; baseline: high Mg2+ state, higher = stronger signaling).
